Experimental data pooled from the literature.
Lines come from different studies, so protocols differ.
Organism: Staphylococcus aureus

C#CCOc1ccc(CN[C@@]2(C)C[C@H](O[C@H]3[C@H](Oc4c5cc6cc4Oc4ccc(cc4Cl)[C@@H](O)[C@@H](NC(=O)[C@@H](CC(C)C)NC)C(=O)N[C@@H](CC(N)=O)C(=O)N[C@H]6C(=O)N[C@H]4C(=O)N[C@H](C(=O)N[C@H](C(=O)N[C@@H](CCCNC(=N)N)C(N)=O)c6cc(O)cc(O)c6-c6cc4ccc6O)[C@H](O)c4ccc(c(Cl)c4)O5)O[C@H](CO)[C@@H](O)[C@@H]3O)O[C@@H](C)[C@H]2O)cc1OC
MIC (NRS402 VISA): 2 µM

CC[C@H](C)[C@H](NC(=O)[C@@H](CCCNC(=N)N)NC(=O)[C@H](CCCNC(=N)N)NC(=O)[C@@H]1CCCN1C(=O)[C@@H]1CCCN1C(=O)[C@H](CCCNC(=N)N)NC(=O)[C@@H]1CCCN1C(=O)[C@H](CCCNC(=N)N)NC(=O)[C@@H]1CCCN1C(=O)[C@H](CC(C)C)NC(=O)[C@H](Cc1ccc(O)cc1)NC(=O)[C@H](Cc1c[nH]cn1)NC(=O)[C@@H]1CCCN1C(=O)[C@H](CCCCN)NC(=O)[C@H](CC(=O)O)NC(=O)[C@@H](N)C(C)C)C(=O)N[C@@H](Cc1ccc(O)cc1)C(=O)N[C@@H](CC(N)=O)C(=O)N[C@H](CCCNC(=N)N)C(N)=O
MIC (broth microdilution; DSM 6247; 18 h, 37 °C, 25% MHB2): > 128 µg/mL

CC1CCN(C(=O)c2cccc(NC(=O)NC3CCCCC3)c2)CC1
MIC (checkerboard, measured: ceftobiprole; CRB, PBP4 overexpressor; 25 µM): > 64 µg/mL

c1ccc(CCNC2CCCc3c2[nH]c2ccc(C4CCCCC4)cc32)cc1 (stereo not shown)
MIC (microbial growth, broth dilution; VISA): 4 µg/mL

CC[C@H](C)[C@H](NC(=O)[C@@H](CCCNC(=N)N)NC(=O)[C@H](CCCNC(=N)N)NC(=O)[C@H](Cc1ccccc1)NC(=O)[C@H](Cc1c[nH]c2ccccc12)NC(=O)[C@H](CCCNC(=N)N)NC(=O)[C@@H]1CCCN1C(=O)[C@H](CCCNC(=N)N)NC(=O)[C@@H]1CCCN1C(=O)[C@H](CC(C)C)NC(=O)[C@H](Cc1ccc(O)cc1)NC(=O)[C@@H]1CCCN1C(=O)[C@@H]1CCCN1C(=O)[C@H](CCCCN)NC(=O)[C@H](CC(=O)O)NC(=O)[C@@H](N)C(C)C)C(=O)N[C@@H](Cc1ccc(O)cc1)C(=O)N[C@@H](CC(N)=O)C(=O)N[C@H](CCCNC(=N)N)C(N)=O
MIC (broth microdilution; DSM 6247; 18 h, 37 °C, 25% MHB2): 64 µg/mL

c1ccc(CN2CCOCCOCCN(CCCCCCCCCCN3CCOCCOCCN(CCCCCCCCCCN4CCOCCOCCN(Cc5ccccc5)CCOCCOCC4)CCOCCOCC3)CCOCCOCC2)cc1
MIC (1199B (NorA overexpressing)): 16 µM

CC(=CC(C)CCCCC(=O)O)C1OC2C=CC1OC(=O)C=CC=CC=CC1OC3CC1OC(C=CCC1OC(CC(O)C1C)C(O)C(O)C=CCCC=CC2)C3C (stereo not shown)
MIC (microbial growth; DSM11822): 0.2 µM

CN[C@H](CC(C)C)C(=O)N[C@H]1C(=O)N[C@@H](CC(N)=O)C(=O)N[C@H]2C(=O)N[C@H]3C(=O)N[C@H](C(=O)N[C@H](C(=O)O)c4cc(O)cc(O)c4-c4cc3ccc4O)[C@H](O)c3ccc(c(Cl)c3)Oc3cc2cc(c3O[C@@H]2O[C@H](CO)[C@@H](O)[C@H](O)[C@H]2O[C@H]2C[C@](C)(NCc3ccc(OCc4cn(CCCCC(=O)N[C@H](C(=O)N[C@@H](CCN)C(=O)N[C@H]5CCNC(=O)[C@H]([C@@H](C)O)NC(=O)[C@H](CCN)NC(=O)[C@H](CCN)NC(=O)[C@H](CC(C)C)NC(=O)[C@@H](CC(C)C)NC(=O)[C@H](CCN)NC5=O)[C@@H](C)O)nn4)c(OC)c3)[C@H](O)[C@H](C)O2)Oc2ccc(cc2Cl)[C@H]1O
MIC (MSSA ATCC 29213): 0.093 µM

CC(C)[C@H](NC(=O)CNC(=O)CNC(=O)[C@H](Cc1ccc(O)cc1)NC(=O)[C@H](CS)NC(=O)[C@@H](NC(=O)[C@H](Cc1c[nH]c2ccccc12)NC(=O)[C@H](Cc1ccccc1)NC(=O)[C@H](CS)NC(=O)[C@H](Cc1c[nH]c2ccccc12)NC(=O)[C@@H](N)CCCNC(=N)N)C(C)C)C(=O)N[C@@H](CS)C(=O)N[C@@H](Cc1ccc(O)cc1)C(=O)N[C@@H](CCCNC(=N)N)C(=O)N[C@@H](CCCNC(=N)N)C(=O)N[C@@H](CS)C(=O)N[C@@H](CCCNC(=N)N)C(=O)O
MIC (broth microdilution; ATCC 25923): 0.64 log10 µg/mL

CC[C@H](C)[C@@H]1NC(=O)[C@H](CO)NC(=O)[C@H](CCCCN)NC(=O)[C@@H]2CSSC[C@@H](C(=O)N[C@@H](Cc3ccc(O)cc3)C(N)=O)NC(=O)[C@H](CCCCN)NC(=O)[C@@H]3CSSC[C@H](NC(=O)[C@H](CCCNC(=N)N)NC(=O)[C@H](CC(C)C)NC(=O)[C@H](CC(=O)O)NC(=O)[C@H](CC(=O)O)NC(=O)[C@H](CCC(=O)O)NC(=O)[C@H](CC(N)=O)NC(=O)[C@H](Cc4c[nH]c5ccccc45)NC(=O)C(C)(CC)NC(=O)CNC(=O)[C@H](CC(N)=O)NC(=O)[C@@H](NC(=O)CNC(=O)[C@H](Cc4ccccc4)NC(=O)CN)CSSC[C@H](NC(=O)[C@H](Cc4ccc(O)cc4)NC(=O)CNC(=O)CNC(=O)[C@H](CCCCN)NC(=O)[C@H](Cc4ccc(O)cc4)NC(=O)[C@H]4CCCN4C(=O)[C@@H]4CCCN4C1=O)C(=O)N[C@@H](C)C(=O)N[C@@H](CCCCN)C(=O)N1CCC[C@@H]1C(=O)NCC(=O)N[C@@H](Cc1ccccc1)C(=O)N[C@@H](C(C)C)C(=O)N3)C(=O)N[C@@H](Cc1c[nH]cn1)C(=O)N[C@@H](CC(N)=O)C(=O)N[C@@H](Cc1c[nH]cn1)C(=O)N2 (stereo partly shown)
MIC (broth microdilution; ATCC 49775; 18 h): 1 µM

CSCC[C@H](NC=O)C(=O)N[C@@H](CCCNC(=N)N)C(=O)N[C@H](C(=O)NCC(=O)N[C@@H](CC(N)=O)C(=O)N[C@@H](C)C(=O)N[C@@H](CC(N)=O)C(=O)NCC(=O)N1CCN(c2ccc(N3C[C@H](CNC(C)=O)OC3=O)cc2F)CC1)[C@@H](C)O
MIC (broth dilution; Newman): > 200 µM

C#CCNC(=O)[C@H]1NC(=O)[C@H]2NC(=O)[C@H](NC(=O)[C@@H]3NC(=O)[C@H](CC(N)=O)NC(=O)[C@H](NC(=O)[C@@H](CC(C)C)NC)[C@H](O)c4ccc(c(Cl)c4)Oc4cc3cc(c4O[C@@H]3O[C@H](CO)[C@@H](O)[C@H](O)[C@H]3O[C@H]3C[C@](C)(N)[C@H](O)[C@H](C)O3)Oc3ccc(cc3Cl)[C@H]2O)c2ccc(O)c(c2)-c2c(O)cc(O)cc21
MIC (broth microdilution; VISA NRS402, tryptic soy broth; 20 to 24 h, 37 °C, 0.002% polysorbate 80): 4 µg/mL

CC(C)C[C@@H](NC(=O)[C@@H](CCCNC(=N)N)NC(=O)[C@H](N)CCCNC(=N)N)C(=O)N[C@H](CC(C)C)C(=O)N[C@H](CCCNC(=N)N)C(=O)N[C@H](CCCCN)C(=O)N[C@H](CC(C)C)C(=O)N[C@H](CCCCN)C(=O)NCC(=O)N[C@H](CCCCN)C(=O)N[C@H](CCCCN)C(=O)N[C@H](CC(C)C)C(=O)N[C@H](Cc1ccc(O)cc1)C(=O)N[C@H](CC(C)C)C(=O)N[C@H](Cc1ccc(O)cc1)C(=O)N[C@H](Cc1ccccc1)C(=O)N[C@H](CCCCN)C(=O)N[C@H](CC(C)C)C(=O)N[C@H](CCC(N)=O)C(=O)N[C@H](CC(C)C)C(=O)N[C@H](CC(C)C)C(=O)N[C@H](CCCCN)C(=O)N[C@H](CCCCN)C(N)=O
MIC (broth microdilution; KCTC 1621, Mueller-Hinton broth; 24 h, 37 °C): 4 µM
